Assay results from different studies.
Protocols differ between the studies behind these lines.

Compound | organism | test | test system | setting | MIC
c1ccc(CCNC2CCCc3c2[nH]c2ccc(C4CCCCC4)cc32)cc1 (stereo not shown) | Staphylococcus aureus | broth microdilution | ATCC 25923, THY medium | – | 5 µg/mL
CCCCc1ccc(-c2nc(C)c(C(C)=NNC(=N)N)s2)cc1 | Staphylococcus aureus | – | USA400 MRSA | – | 1.3 µg/mL
CC[C@H](C)[C@H](NC(=O)[C@H](CC(C)C)NC(=O)CCNC(=O)[C@H](CO)NC(=O)[C@H](CCCNC(=N)N)NC(=O)[C@@H](N)CO)C(=O)N[C@H](C(=O)N[C@@H](Cc1c[nH]cn1)C(=O)N[C@@H](CCC(N)=O)C(=O)N[C@@H](CCCNC(=N)N)C(=O)N[C@@H](CC(C)C)C(=O)N[C@@H](Cc1ccccc1)C(N)=O)C(C)C | Trichophyton rubrum | broth microdilution | ATCC 28189 | – | > 400 µg/mL
CC[C@H](C)[C@H](NC(=O)CNC(=O)[C@H](CCCCN)NC(=O)[C@H](C)NC(=O)[C@H](CCC(=O)O)NC(=O)[C@H](Cc1ccccc1)NC(=O)[C@H](CO)NC(=O)[C@H](CC(C)C)NC(=O)[C@@H](NC(=O)[C@H](CC(=O)O)NC(=O)[C@H](C)NC(=O)[C@@H](NC(=O)[C@@H](N)C(C)C)[C@@H](C)O)C(C)C)C(=O)N[C@@H](C)C(=O)N[C@H](C(=O)N[C@@H](CC(N)=O)C(=O)N[C@@H](Cc1c[nH]cn1)C(=O)N[C@@H](CO)C(=O)N[C@@H](C)C(=O)N[C@H]1CSSC[C@@H]2NC(=O)[C@H](C(C)C)NC(=O)CNC(=O)[C@H](CC(N)=O)NC(=O)[C@H](CCC(N)=O)NC(=O)[C@H](C)NC(=O)[C@H](CO)NC(=O)CNC(=O)CNC(=O)[C@H](CCCCN)NC(=O)[C@H](CCCCN)NC(=O)[C@H](CCCNC(=N)N)NC(=O)[C@H](CC(C)C)NC(=O)[C@H](C)NC(=O)[C@H]([C@@H](C)CC)NC(=O)[C@H](CSSC[C@@H](C(=O)N[C@@H](CCCNC(=N)N)C(=O)N[C@@H](CC(N)=O)C(=O)O)NC(=O)[C@H](C(C)C)NC2=O)NC(=O)[C@H](Cc2c[nH]cn2)NC(=O)[C@H](CC(C)C)NC(=O)[C@H](C)NC1=O)C(C)C | Malassezia furfur | broth microdilution | KCTC 7744 | 32 °C, YM broth with 1% olive oil | 25 µM
C[N+]1=C2C(c3ccc([N+](=O)[O-])cc3)=[N+]([O-])c3ccccc3N2CCC1 | Fusobacterium mortiferum | microbial growth | – | – | 1 µg/mL
CC[C@H](C)[C@H](NC(=O)[C@@H](NC(=O)CN)C(C)C)C(=O)N[C@@H](Cc1ccccc1)C(=O)N[C@@H](CC(N)=O)C(=O)N[C@@H](C)C(=O)N[C@@H](CC(C)C)C(=O)N[C@@H](CCCCN)C(=O)NCC(=O)N[C@H](C(=O)N[C@@H](C)C(=O)N[C@@H](CCCCN)C(=O)N[C@H](C(=O)N[C@H](C(=O)N[C@@H](C)C(=O)N[C@@H](C)C(=O)N[C@@H](CCC(N)=O)C(=O)N[C@@H](CC(C)C)C(=O)N[C@@H](CC(C)C)C(=O)N[C@@H](CCCCN)C(=O)N[C@@H](CCCCN)C(=O)N[C@@H](C)C(=O)N[C@@H](CCCNC(=N)N)C(=O)N[C@H]1CSSC[C@@H](C(=O)O)NC(=O)[C@H](CO)NC(=O)[C@H](CCCCN)NC(=O)[C@H](CC(=O)O)NC(=O)[C@H](CC(C)C)NC(=O)[C@H](CCCCN)NC1=O)C(C)C)[C@@H](C)O)C(C)C | Staphylococcus aureus | – | NCTC 10788 | added: horse serum 10% | 2 µM
COc1ccc(C2=[N+]([O-])c3ccccc3N3CC(C)(C)CN=C23)cc1 | Peptostreptococcus anaerobius | – | – | – | 1 µg/mL
CCCCCCCCCCCCCCCCCCSCC1OC(OC2C(N)CC(N)C(OC3OC(CN)C(O)CC3N)C2O)C(O)C(N)C1O (stereo not shown) | Listeria monocytogenes | – | ATCC 19115 | – | 75 µg/mL
[O-][N+]1=C(c2ccccc2)C2=NCCCN2c2ncccc21 | Bacteroides ovatus | – | ATCC 84834 | – | 0.125 µg/mL
CC(C)C[C@@H]1NC(=O)[C@H](C)NC(=O)[C@H](NC(=O)[C@H](CO)NC(=O)[C@@H](CCCCN)NC(=O)[C@@H](CC(C)C)N(C)C(=O)[C@@H](N)Cc2ccccc2)[C@H](C)OC(=O)[C@H](CC(C)C)NC1=O | Bacillus subtilis Bacillus subtilis | – | ATCC 6051 | tested as TFA salt | 32 µg/mL

For quick reference, copied from above:
Compound | organism | test | test system | setting | MIC
C[N+]1=C2C(c3ccc([N+](=O)[O-])cc3)=[N+]([O-])c3ccccc3N2CCC1 | Fusobacterium mortiferum | microbial growth | – | – | 1 µg/mL
